Experimental data gathered from unrelated publications.
Each line is one published result; not all experiments were run side by side. ± gives the spread as reported.
SYK with FCER1G: Tyrosine-protein kinase SYK, with FCER1G (SYK, Homo sapiens, UniProt P43405)
APP amyloid-beta peptide: Amyloid-beta precursor protein, amyloid-beta peptide (APP, Homo sapiens, UniProt P05067)
IDO1: Indoleamine 2,3-dioxygenase 1 (IDO1, Homo sapiens, UniProt P14902)
ESR1: Estrogen receptor (ESR1, Homo sapiens, UniProt P03372)

The chains behind the UniProt entries cited, without tags or fusion partners. Residues count along the entry.
UniProt P05067, whole entry, looked up: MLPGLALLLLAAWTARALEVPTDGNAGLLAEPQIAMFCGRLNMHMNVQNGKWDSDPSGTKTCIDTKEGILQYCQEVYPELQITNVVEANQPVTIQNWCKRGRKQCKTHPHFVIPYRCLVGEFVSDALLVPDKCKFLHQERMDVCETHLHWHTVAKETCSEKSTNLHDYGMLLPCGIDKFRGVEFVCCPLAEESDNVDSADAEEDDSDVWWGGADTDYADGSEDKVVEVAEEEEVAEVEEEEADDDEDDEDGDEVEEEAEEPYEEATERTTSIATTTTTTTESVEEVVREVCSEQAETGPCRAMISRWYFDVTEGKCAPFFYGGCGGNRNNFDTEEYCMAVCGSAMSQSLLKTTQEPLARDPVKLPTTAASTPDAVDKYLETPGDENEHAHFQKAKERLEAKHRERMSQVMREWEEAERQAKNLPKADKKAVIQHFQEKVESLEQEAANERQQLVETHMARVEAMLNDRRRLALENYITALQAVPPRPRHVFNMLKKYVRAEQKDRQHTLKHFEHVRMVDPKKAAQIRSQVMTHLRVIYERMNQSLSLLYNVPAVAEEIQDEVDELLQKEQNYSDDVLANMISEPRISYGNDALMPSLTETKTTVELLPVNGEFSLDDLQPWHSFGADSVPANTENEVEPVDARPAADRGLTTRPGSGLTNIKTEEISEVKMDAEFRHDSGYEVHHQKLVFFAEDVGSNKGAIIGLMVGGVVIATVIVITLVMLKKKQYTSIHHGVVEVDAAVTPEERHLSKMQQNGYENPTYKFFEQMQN
UniProt P03372, whole entry: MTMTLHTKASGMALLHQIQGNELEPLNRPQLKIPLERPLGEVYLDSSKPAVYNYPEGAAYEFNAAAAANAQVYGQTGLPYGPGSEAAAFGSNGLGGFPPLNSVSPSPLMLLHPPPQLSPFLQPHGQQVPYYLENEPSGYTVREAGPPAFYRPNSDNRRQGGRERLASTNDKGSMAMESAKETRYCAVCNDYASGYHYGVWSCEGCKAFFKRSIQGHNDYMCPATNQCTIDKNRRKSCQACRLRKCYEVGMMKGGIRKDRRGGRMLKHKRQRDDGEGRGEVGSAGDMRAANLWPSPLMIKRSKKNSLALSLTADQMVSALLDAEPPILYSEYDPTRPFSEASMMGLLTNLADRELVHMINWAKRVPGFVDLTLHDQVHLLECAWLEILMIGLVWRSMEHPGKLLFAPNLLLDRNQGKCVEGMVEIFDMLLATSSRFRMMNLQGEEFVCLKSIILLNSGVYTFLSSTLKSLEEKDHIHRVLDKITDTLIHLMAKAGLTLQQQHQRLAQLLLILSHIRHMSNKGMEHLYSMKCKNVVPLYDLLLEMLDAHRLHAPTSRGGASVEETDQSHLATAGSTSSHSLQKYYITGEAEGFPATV
UniProt P00519, 242-493 Y253H limits assumed: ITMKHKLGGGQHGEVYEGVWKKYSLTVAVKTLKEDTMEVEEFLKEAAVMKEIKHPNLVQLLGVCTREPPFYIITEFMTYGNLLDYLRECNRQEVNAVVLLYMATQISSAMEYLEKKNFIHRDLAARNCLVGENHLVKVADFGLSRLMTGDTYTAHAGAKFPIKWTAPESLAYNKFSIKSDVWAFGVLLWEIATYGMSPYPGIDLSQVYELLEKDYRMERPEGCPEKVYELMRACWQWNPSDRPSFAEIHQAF
UniProt Q9Y3Z3, whole entry: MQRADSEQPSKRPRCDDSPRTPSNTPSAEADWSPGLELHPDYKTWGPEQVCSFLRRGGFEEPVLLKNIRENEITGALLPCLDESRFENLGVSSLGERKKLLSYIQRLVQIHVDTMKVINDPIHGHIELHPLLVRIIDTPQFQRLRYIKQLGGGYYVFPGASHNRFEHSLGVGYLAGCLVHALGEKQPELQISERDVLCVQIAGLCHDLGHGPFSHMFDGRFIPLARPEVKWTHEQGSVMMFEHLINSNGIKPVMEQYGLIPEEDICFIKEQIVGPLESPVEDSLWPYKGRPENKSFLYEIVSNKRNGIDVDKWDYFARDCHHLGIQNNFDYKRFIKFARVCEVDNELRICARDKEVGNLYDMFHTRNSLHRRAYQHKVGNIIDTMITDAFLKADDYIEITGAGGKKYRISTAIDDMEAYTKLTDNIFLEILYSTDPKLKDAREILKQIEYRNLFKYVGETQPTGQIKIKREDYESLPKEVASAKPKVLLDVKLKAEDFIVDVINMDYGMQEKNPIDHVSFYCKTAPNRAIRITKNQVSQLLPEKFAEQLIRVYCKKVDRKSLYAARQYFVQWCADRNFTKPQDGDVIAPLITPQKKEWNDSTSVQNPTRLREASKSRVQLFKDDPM
UniProt P29466, whole entry, looked up: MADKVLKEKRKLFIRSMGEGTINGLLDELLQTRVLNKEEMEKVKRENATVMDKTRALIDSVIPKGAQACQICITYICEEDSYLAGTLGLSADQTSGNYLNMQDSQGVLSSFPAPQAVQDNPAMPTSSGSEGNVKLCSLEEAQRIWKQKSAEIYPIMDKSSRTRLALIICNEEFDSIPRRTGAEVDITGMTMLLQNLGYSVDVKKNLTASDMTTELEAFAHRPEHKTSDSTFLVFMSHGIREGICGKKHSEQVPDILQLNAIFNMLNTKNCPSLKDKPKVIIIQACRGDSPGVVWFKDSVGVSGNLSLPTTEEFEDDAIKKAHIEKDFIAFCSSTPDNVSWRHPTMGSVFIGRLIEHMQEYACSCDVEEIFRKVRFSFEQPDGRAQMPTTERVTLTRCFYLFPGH
UniProt Q8TF76, whole entry: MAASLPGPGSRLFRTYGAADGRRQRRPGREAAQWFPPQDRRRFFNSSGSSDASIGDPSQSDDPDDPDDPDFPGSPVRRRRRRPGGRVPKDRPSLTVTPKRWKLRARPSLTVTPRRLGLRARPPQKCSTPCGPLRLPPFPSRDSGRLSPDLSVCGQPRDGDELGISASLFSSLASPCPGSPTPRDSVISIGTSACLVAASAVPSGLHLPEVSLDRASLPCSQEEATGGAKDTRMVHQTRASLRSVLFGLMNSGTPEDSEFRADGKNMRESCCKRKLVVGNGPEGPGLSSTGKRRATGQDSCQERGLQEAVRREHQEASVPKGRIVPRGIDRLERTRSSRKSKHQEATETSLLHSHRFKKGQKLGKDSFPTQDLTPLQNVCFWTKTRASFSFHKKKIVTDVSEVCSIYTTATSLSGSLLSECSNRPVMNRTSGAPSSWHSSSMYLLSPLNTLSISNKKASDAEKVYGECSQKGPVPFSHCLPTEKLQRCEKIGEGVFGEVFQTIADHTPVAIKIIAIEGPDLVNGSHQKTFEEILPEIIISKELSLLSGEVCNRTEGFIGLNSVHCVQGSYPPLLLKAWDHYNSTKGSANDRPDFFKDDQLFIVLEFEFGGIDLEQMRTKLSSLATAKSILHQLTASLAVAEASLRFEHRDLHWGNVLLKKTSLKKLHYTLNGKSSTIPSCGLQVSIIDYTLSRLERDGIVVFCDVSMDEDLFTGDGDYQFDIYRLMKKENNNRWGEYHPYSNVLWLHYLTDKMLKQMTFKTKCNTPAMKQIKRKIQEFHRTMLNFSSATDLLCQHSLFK
UniProt Q9Y253, 1-437 limits assumed: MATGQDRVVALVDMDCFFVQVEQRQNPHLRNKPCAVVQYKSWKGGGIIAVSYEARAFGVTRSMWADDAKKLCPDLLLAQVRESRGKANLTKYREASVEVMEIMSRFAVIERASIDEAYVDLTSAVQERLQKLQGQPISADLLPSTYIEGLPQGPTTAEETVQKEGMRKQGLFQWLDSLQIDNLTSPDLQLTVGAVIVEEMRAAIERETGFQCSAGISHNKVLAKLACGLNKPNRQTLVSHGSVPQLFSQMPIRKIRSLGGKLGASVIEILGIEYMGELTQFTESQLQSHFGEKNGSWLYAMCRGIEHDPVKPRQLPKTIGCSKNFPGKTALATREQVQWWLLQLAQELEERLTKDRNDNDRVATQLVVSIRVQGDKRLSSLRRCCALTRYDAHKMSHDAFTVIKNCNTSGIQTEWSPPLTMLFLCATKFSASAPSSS
UniProt Q96HE7, whole entry, looked up: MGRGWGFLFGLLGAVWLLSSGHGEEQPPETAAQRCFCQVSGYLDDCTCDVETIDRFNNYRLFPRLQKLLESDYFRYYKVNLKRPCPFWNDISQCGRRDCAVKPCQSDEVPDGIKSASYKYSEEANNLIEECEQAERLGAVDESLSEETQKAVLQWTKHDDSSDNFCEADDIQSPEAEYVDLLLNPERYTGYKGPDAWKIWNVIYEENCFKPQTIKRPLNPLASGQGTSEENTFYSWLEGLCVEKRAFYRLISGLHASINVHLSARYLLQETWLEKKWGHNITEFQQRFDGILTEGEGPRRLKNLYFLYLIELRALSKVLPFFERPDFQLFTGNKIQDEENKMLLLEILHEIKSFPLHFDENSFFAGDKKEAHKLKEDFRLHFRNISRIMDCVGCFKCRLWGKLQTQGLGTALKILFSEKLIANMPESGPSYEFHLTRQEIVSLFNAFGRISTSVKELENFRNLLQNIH
UniProt P34913, whole entry: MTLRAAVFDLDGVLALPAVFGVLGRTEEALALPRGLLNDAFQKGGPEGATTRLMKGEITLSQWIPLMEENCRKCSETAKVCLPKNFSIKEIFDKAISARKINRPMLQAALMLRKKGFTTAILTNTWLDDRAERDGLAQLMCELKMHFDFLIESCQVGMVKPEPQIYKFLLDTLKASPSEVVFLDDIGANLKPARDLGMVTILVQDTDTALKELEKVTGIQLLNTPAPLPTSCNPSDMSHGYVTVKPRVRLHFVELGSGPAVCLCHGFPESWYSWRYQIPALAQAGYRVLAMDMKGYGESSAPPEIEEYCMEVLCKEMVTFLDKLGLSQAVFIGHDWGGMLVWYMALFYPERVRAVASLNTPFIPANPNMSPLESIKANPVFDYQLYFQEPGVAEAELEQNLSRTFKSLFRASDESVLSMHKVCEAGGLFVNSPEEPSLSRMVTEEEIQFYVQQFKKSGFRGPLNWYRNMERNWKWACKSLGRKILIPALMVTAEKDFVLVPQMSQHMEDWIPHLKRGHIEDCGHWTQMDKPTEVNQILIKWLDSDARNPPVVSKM
UniProt P31424, 21-1203 limits assumed: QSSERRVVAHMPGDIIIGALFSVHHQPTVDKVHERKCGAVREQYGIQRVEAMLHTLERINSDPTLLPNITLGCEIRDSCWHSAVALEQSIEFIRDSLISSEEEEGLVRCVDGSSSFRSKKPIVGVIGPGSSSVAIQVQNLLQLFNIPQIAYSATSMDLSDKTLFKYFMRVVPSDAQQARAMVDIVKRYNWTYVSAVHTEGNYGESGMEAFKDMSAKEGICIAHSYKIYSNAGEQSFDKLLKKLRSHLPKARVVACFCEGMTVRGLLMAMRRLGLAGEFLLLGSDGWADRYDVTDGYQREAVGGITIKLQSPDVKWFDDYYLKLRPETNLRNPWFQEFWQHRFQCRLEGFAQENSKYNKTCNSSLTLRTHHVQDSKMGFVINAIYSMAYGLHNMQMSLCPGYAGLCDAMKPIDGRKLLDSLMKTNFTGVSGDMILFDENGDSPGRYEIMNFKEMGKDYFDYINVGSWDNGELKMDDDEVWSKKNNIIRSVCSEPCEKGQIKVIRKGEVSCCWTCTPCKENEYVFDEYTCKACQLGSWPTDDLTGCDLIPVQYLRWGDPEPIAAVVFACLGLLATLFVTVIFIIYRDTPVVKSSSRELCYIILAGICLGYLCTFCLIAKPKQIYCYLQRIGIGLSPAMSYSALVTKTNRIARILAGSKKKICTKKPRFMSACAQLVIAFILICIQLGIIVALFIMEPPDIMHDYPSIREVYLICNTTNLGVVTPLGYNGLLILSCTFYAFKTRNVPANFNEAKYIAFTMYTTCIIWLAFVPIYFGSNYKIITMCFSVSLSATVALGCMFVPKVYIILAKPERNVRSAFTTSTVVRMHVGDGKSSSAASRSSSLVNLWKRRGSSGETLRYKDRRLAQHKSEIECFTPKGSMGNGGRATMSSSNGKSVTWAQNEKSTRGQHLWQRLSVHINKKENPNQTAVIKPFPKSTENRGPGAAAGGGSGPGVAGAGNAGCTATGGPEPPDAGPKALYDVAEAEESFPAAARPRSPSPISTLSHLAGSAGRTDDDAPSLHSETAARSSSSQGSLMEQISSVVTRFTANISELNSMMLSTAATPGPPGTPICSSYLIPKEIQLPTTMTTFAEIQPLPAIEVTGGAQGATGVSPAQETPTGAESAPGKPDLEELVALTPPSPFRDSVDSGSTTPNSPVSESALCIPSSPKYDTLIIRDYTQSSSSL
UniProt P68400, whole entry: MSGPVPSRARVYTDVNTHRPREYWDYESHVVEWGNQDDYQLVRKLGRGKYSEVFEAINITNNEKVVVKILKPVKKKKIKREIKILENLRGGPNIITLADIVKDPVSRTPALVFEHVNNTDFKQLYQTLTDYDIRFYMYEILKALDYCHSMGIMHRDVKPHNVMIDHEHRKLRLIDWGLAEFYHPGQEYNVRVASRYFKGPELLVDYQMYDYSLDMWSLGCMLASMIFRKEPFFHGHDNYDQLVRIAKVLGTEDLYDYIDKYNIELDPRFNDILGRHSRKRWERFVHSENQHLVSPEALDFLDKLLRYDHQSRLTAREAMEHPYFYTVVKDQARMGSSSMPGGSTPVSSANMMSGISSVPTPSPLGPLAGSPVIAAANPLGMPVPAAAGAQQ

COc1cc(Nc2ncnc(-c3cccnc3Nc3cc(NC(=O)c4cccc(C(F)(F)F)c4)ccc3C)n2)cc(OC)c1OC
IC50 (ABL1 (Homo sapiens, UniProt P00519, Y253H); enzyme activity; kinase domain): 0.025 ± 0.008 µM

O=C(Nc1ccc(-c2nc3ccccc3s2)cc1)c1ccccc1[N+](=O)[O-]
IC50 (SYK with FCER1G; protein binding, inhibitor, TR-FRET): > 100 µM

Nc1nc2c(ncn2COCCNC(=O)c2cc3cc(Br)ccc3c(Br)c2O)c(=O)[nH]1
IC50 (SAMHD1 (Homo sapiens, UniProt Q9Y3Z3); dNTPase activity, inhibitor, malachite green; with: dATP and GTP): 5 ± 0.9 µM

COc1cc([C@@H]2c3cc4c(cc3[C@@H](OC3CCCCC3)[C@H]3COC(=O)[C@H]23)OCO4)cc(OC)c1OC
IC50 (Tubulin alpha/beta heterodimer (Leishmania infantum, UniProt A0A381MCS3+A4HTR0); tubulin polymerization, inhibitor; 37 °C, with: tubulin 1.2 mg/mL): 3.4 ± 0.5 µM

Fc1ccc2[nH]cc(/C=C/c3ccncc3)c2c1
IC50 (APP amyloid-beta peptide; Aβ42 oligomerisation, ELISA): > 20 µM

COc1ccc(NC(=O)N[C@@H](Cc2ccc(O)cc2)C(=O)NCC2(c3ccccc3)CC2)cc1
IC50 (FPR2 (Homo sapiens, UniProt P25090); calcium mobilization; FPR2-transfected HL-60; desensitization pretreatment, with: WKYMVM 5 nM): 9.8 ± 2.1 µM

COC(=O)CSCCc1nc(-c2ccc(Cl)c(Cl)c2)cs1
IC50 (ALK (Homo sapiens, UniProt Q9UM73); ELISA): 17 µM

O=C(Nc1ccc(-c2nc3ccccc3[nH]2)cc1)c1ccco1
IC50 (SYK with FCER1G; protein binding, inhibitor, TR-FRET): 72.6 µM

CCn1cc(NCc2ccccc2)c(C(=O)O)n1
IC50 (IDO1): ~300 µM

Nc1nccc(-c2ccc(C3(c4ccc(Cl)cc4)CCNCC3)cc2)n1
IC50 (AKT1 (Homo sapiens, UniProt P31749); kinase activity, inhibitor, radiometric HotSpot; with: ATP 10 µM): 0.021 µM

Nc1ccc(F)cc1-c1nc2ccccc2[nH]c1=O
IC50 (Protein diaphanous homolog 1, FH2 domain (Diaph1, Mus musculus, UniProt O08808); actin assembly, inhibitor, pyrene-actin polymerization): > 50 µM

CCOc1ccc(S(=O)(=O)NC(=O)Cc2ccc(Oc3ccccc3)cc2)cc1Br
IC50 (CGAS (Homo sapiens, UniProt Q8N884); enzyme activity, inhibitor, Kinase-Glo ATP depletion; 25 °C, 100 nM enzyme): 58.4 µM

c1c(N2CCCC2)nc(N2CCCC2)nc1N1CCN(CC2CCCC2)CC1
IC50 (Caspase-1 (CASP1, Homo sapiens, UniProt P29466); enzyme activity, inhibitor; 30 min preincubation, with: Ac-WEHD-AMC 10 µM): 0.04 ± 0.007 µM

Clc1ccc(C2(c3ccc(-c4ccncc4)cc3)CCNCC2)cc1
IC50 (LATS1 (Homo sapiens, UniProt O95835); kinase activity, inhibitor, radiometric HotSpot; with: ATP 10 µM): 0.53 µM

NCCOCCOCCNC(=O)[C@@H]1CCCCNC(=O)[C@H](Cc2ccc([N+](=O)[O-])cc2)NC(=O)[C@H](CC2CCCCC2)NC(=O)C[C@H](O)[C@H](CC2CCCCC2)NC(=O)/C=C\C(=O)N1
IC50 (MAP kinase-activated protein kinase 2, with p38alpha (MAPKAPK2, Homo sapiens, UniProt P49137); inhibitor, Z'-LYTE; p38α-MAPKAPK2 kinase cascade): 3.1 µM

COc1ccc2nc3ccc(OC)cc3c(SCCCN(C)C)c2c1
IC50 (HASPIN (Homo sapiens, UniProt Q8TF76); inhibitor, TR-FRET; with: histone H3 peptide): 0.046 µM

CCN(Cc1cccnc1)c1ccc2c(c1)c(=O)c(C(N)=O)cn2-c1ccc(F)cc1
IC50 (Grm2 (Rattus norvegicus, UniProt P31421); calcium mobilization, negative allosteric modulator): 0.159 µM

O=C1NC(=O)C(=Cc2cn(Cc3ccc4ccccc4c3)c3ccccc23)C(=O)N1
IC50 (DNA polymerase eta (POLH, Homo sapiens, UniProt Q9Y253); DNA polymerase activity, inhibitor, fluorescence; with: dTTP 100 µM): 12 µM

CCc1ccc(SCC(=O)Nc2ccc3nc(SCC(=O)NC4CC4)sc3c2)cc1
IC50 (ESR1; reporter gene, antagonist; HEC-1 transfected ERα luciferase reporter): 20 to 50 µM

O=C1C(=O)N(CCc2ccccc2)c2ccc(F)cc21
IC50 (PARK7 (Homo sapiens, UniProt Q99497); glyoxalase activity, inhibitor; pH 7.0, 1% DMSO, with: phenylglyoxal 2 µM): 0.28 µM

N#Cc1ccc2[nH]cc(/C=C/c3ccc(CO)cc3)c2c1
IC50 (IDO1; enzyme activity, inhibitor): 12.3 µM

Cc1ccc(NC(=O)COC(=O)C(CC(C)C)N2C(=O)C3CC=CCC3C2=O)c(C)c1 (centres unmarked)
IC50 (Cruzipain (Trypanosoma cruzi, UniProt P25779); enzyme activity, inhibitor, fluorogenic substrate cleavage; 0.01% Triton X-100, with: Z-FR-AMC): 25 µM

C=CCn1c(Cc2ccccc2)nnc1Sc1c2c(c(C#N)c3nc4ccccc4n13)CCCC2
IC50 (ERO1-like protein alpha (Homo sapiens, UniProt Q96HE7); enzyme activity, inhibitor, fluorescence): 29.7 µM

O=C(CCCCCn1c(=S)[nH]c2ccccc2c1=O)N1CCN(c2cccc(C(F)(F)F)c2)CC1
IC50 (ESR1; reporter gene, coactivator binding inhibitor, luciferase reporter; HEC-1 cells transfected with ERα; partial inhibition, with: estradiol 1 nM): 25 µM

O=C(O)CC[C@H](NC(=O)c1cc(C(=O)O)cc([C@H]2CCN[C@@H]2C(=O)O)c1)C(=O)O
IC50 (Glutamate receptor ionotropic, NMDA 2C, with GluN1 (Rattus norvegicus, UniProt Q00961); ion current, antagonist, two-electrode voltage clamp; Xenopus oocytes; GluN1/GluN2C, with: glycine 100 µM and glutamate 1 µM): 2.61 ± 0.07 µM

Nc1ccccc1C(=O)N1C[C@H](O)C[C@H]1C(=O)NCc1ccc(Cl)cc1
IC50 (von Hippel-Lindau disease tumor suppressor, with elongin B, C (VHL, Homo sapiens, UniProt P40337); binding, fluorescence polarization; 10% DMSO, with: FAM-HIF1α peptide tracer): 38 ± 1 µM

COc1cc2ncnc(Nc3ccc(OCc4cccc(F)c4)c(Cl)c3)c2cc1OC
IC50 (PKN3 (Homo sapiens, UniProt Q6P5Z2); binding, split-luciferase): 17 µM

CC(=NNC(=N)N)c1sc(-c2ccc(C#Cc3ccccc3)cc2)nc1C
IC50 (gyrB (Escherichia coli, UniProt P0AES6); DNA supercoiling, inhibitor; free compound): 25.6 ± 1.54 µg/mL

[2H]c1c([2H])c(S(=O)(=O)N2CCC(C)(C(=O)Nc3ccc4cc(C(=O)O)ccc4c3)CC2)c(C([2H])([2H])[2H])c([2H])c1C([2H])([2H])[2H]
IC50 (EPHX2 (Homo sapiens, UniProt P34913); pH 7.0, 30 °C, with: CMNPC substrate 5 µM): 3.5 µM

CC1(C)C(=S)Nc2ccccc21
IC50 (CA2 (Homo sapiens, UniProt P00918); inhibitor): > 200 µM

CCOc1ccccc1Nc1nnc(SCC(=O)Nc2cc(F)ccc2F)s1
IC50 (CD28, with CD80 (Homo sapiens, UniProt P10747); protein interaction, NanoBiT complementation; CHO-K1; 2 h): 21.9 µM

O=C(O)c1cc(C(=O)N2CCC[C@H]2C(=O)O)cc([C@H]2CCN[C@@H]2C(=O)O)c1
IC50 (AMPA receptor (rat); binding, radioligand binding; rat cortical synaptosomes; with: [3H]AMPA): 10 to 50 µM

N#Cc1cnc(Nc2nc3ccccc3o2)nc1-c1cc(Cl)cc(Cl)c1
IC50 (Grm5 (Rattus norvegicus, UniProt P31424); calcium mobilization, negative allosteric modulator; with: glutamate EC80): > 30 µM

O=C(O)c1csc(-n2nc(-c3ccccc3)cc2C(F)(F)F)n1
IC50 (LDHA (Homo sapiens, UniProt P00338); enzyme activity, inhibitor): 33.5 µM

COc1ccc([C@@H](CCc2ccc(O)cc2OC)c2cc3c(c(C)c2O)O[C@H](c2ccc(O)cc2)CC3)cc1
IC50 (ALOX5 (Homo sapiens, UniProt P09917); enzyme activity; cell-free): 0.8 µM

CCc1ccc(SCC(=O)Nc2ccc3nc(SCC(=O)NCC(C)C)sc3c2)cc1
IC50 (ESR1; reporter gene, antagonist; HEC-1 transfected ERα luciferase reporter): > 50 µM

CCOC(=O)c1cccc(C(NS(=O)(=O)c2cccs2)C(=O)Nc2ccc(Cl)cc2)c1 (centres unmarked)
IC50 (Uracil nucleotide/cysteinyl leukotriene receptor, long isoform (GPR17, Homo sapiens, UniProt Q13304); calcium mobilization, antagonist; 1321-N1): 15.7 ± 1.32 µM

COc1ccc(SCC(=O)Nc2ccc3nc(SCC(=O)NC4CC4)sc3c2)cc1
IC50 (ESR1; reporter gene, antagonist; HEC-1 transfected ERα luciferase reporter): 20 to 50 µM

CN1CCN(Cc2ccc(NC(=O)c3cncc(C#Cc4c(N)ncc5ccc(F)cc45)c3)cc2C(F)(F)F)CC1
IC50 (Kinesin-1 heavy chain/ Tyrosine-protein kinase receptor RET (RET/KIF5B, Homo sapiens, UniProt P07949+P33176, G810V); cell viability, inhibitor, CellTiter-Glo; Ba/F3 KIF5B-RET G810V): 0.0073 ± 0.00022 µM

CC(=O)Nc1ccc2cnn(-c3cc(NC4CC4)n4ncc(C#N)c4n3)c2c1
IC50 (CSNK2A1 (Homo sapiens, UniProt P68400); target engagement, NanoBRET; HEK293): 0.094 µM

CN1CC[C@H](c2c(O)cc(O)c3c(=O)cc(-c4ccccc4F)oc23)[C@H](O)C1
IC50 (PRKCA (Homo sapiens, UniProt P17252); ATP at Km): > 10 µM

N#Cc1ccc2[nH]cc(/C=C/c3ccncc3)c2c1
IC50 (APP amyloid-beta peptide; Aβ42 oligomerisation, ELISA): 14.5 µM

Cc1ccc(-c2ccc3c(c2)sc2nc(CCC(=O)O)[nH]c(=O)c23)cc1
IC50 (FGFR1 (Homo sapiens, UniProt P11362); kinase activity, inhibitor, AlphaScreen; with: biotinylated peptide substrate): 26 µM

O=C(NC1CC1)C(=O)[C@H](Cc1ccccc1)NC(=O)[C@H]1CCC(=O)N1Cc1ccccc1
IC50 (CAPN1 (Homo sapiens, UniProt P07384); enzyme activity, inhibitor): 0.52 ± 0.1 µM

Repeated from above:
COc1ccc2nc3ccc(OC)cc3c(SCCCN(C)C)c2c1
IC50 (HASPIN (Homo sapiens, UniProt Q8TF76); inhibitor, TR-FRET; with: histone H3 peptide): 0.046 µM

CN1CC[C@H](c2c(O)cc(O)c3c(=O)cc(-c4ccccc4F)oc23)[C@H](O)C1
IC50 (PRKCA (Homo sapiens, UniProt P17252); ATP at Km): > 10 µM

CCn1cc(NCc2ccccc2)c(C(=O)O)n1
IC50 (IDO1): ~300 µM

Cc1ccc(-c2ccc3c(c2)sc2nc(CCC(=O)O)[nH]c(=O)c23)cc1
IC50 (FGFR1 (Homo sapiens, UniProt P11362); kinase activity, inhibitor, AlphaScreen; with: biotinylated peptide substrate): 26 µM

COc1ccc([C@@H](CCc2ccc(O)cc2OC)c2cc3c(c(C)c2O)O[C@H](c2ccc(O)cc2)CC3)cc1
IC50 (ALOX5 (Homo sapiens, UniProt P09917); enzyme activity; cell-free): 0.8 µM
